{"data": "Assay results collected from several papers", "note": "± marks the error that the study gave."}
{"SMILES": "CC(C(=O)O)n1nc(Cn2cc3cc(OCC[18F])c(Cl)cc3n2)c2ccccc2c1=O (racemic)", "test system": "Sprague-Dawley rat male, pancreas", "setting": "60 min", "endpoint": "tissue uptake", "result": "0.06 ± 0.03 %ID/g"}
{"SMILES": "CCCC[C@H](NC(=O)CCCCCCCNC(=O)CN1CCN(CC(=O)O)CCN(CC(=O)O)CC1)C(=O)N[C@H]1CC(=O)NCCCC[C@@H](C(N)=O)NC(=O)[C@H](Cc2c[nH]c3ccccc23)NC(=O)[C@H](CCCNC(=N)N)NC(=O)[C@@H](Cc2ccccc2)NC(=O)[C@H](Cc2c[nH]cn2)NC1=O [fluorine-18 labelled]", "test system": "C57 mice B16-F10 melanoma, spleen", "setting": "intravenous, 0.37 MBq, 1 h", "endpoint": "tissue uptake", "result": "0.35 ± 0.29 %ID/g"}
{"SMILES": "CCOC(=O)CNC(=O)CN1CCN(CC(=O)NCC(=O)OCC)CCN(CC(=O)NCC(=O)OCC)CCN(CC(=O)NCC(=O)OCC)CC1.[177Lu+3]", "test system": "Sprague-Dawley rat, blood", "setting": "intravenous (tail vein), dose not given, 2 h", "endpoint": "tissue uptake", "result": "0.039 ± 0.007 % injected dose/g"}
{"SMILES": "COc1cccc(OC)c1-c1cc(C(=O)NC2(C(=O)O)C3CC4CC(C3)CC2C4)nn1-c1ccc(C(=O)N(C)CCCN(C)C(=O)[C@H](CCCCNC(=O)[C@H](CC(C)C)NC(=O)C2OC2C(=O)O)NC(=O)CN2CCN(CC(=O)[O-])CCN(CC(=O)[O-])CCN(CC(=O)[O-])CC2)cc1C(C)C.[177Lu+3] (mixture of isomers)", "test system": "mouse, HT-29 xenograft, heart", "setting": "24 h post injection", "endpoint": "tissue uptake", "result": "0.14 %ID/g"}
{"SMILES": "CN(CCCO)Cc1ccc(-c2noc(-c3ccc(OCC[18F])c(C(F)(F)F)c3)n2)cc1F", "test system": "Sprague-Dawley rats, male, small intestine", "setting": "5 min post-injection", "endpoint": "tissue uptake", "result": "1.06 ± 0.19 %ID/g"}
{"SMILES": "COC1CN([C@H]2CC[C@H]([C@@]3(C)Oc4c(Cl)cc(C(=O)NCc5c(SC)cc(C)[nH]c5=O)c(C)c4O3)CC2)C1", "assay": "RNA-seq, item: RANBP17 mouse homolog", "test system": "mouse, HT-1376 xenograft, whole blood", "setting": "dose not given", "how to read": "baseline: vehicle", "endpoint": "log2 fold change", "result": 2.01}
{"SMILES": "O=C1NC2(CC2)COc2ncc(F)cc2[C@H]2COCCN2c2ccn3ncc1c3n2", "target or system": "Salmonella typhimurium", "assay": "Ames test", "test system": "TA102", "setting": "50 µg/plate, 48 h, together with: without S9", "endpoint": "revertant colonies", "result": "390 ± 11 revertants/plate"}
{"SMILES": "COc1cccc(OC)c1-c1cc(C(=O)NC2(C(=O)O)C3CC4CC(C3)CC2C4)nn1-c1ccc(C(=O)N(C)CCOCCOCCN(C)C(=O)[C@H](CCCCNC(=O)[C@H](CC(C)C)NC(=O)C2OC2C(=O)O)NC(=O)CN2CCN(CC(=O)[O-])CCN(CC(=O)[O-])CCN(CC(=O)[O-])CC2)cc1C(C)C.[177Lu+3] (mixture of isomers)", "test system": "mouse, HT-29 xenograft, brain", "setting": "24 h post injection", "endpoint": "tissue uptake", "result": "0.03 %ID/g"}
{"SMILES": "O=C(CN1CCN(CC(=O)NCc2ncccc2O)CCN(CC(=O)NCc2ncccc2O)CCN(CC(=O)NCc2ncccc2O)CC1)NCc1ncccc1O.[177Lu+3]", "test system": "Sprague-Dawley rat, liver", "setting": "intravenous (tail vein), dose not given, 2 h", "endpoint": "tissue uptake", "result": "0.354 ± 0.088 % injected dose/g"}
{"SMILES": "Nc1ncc(-c2cc(-c3cnn(CC(F)(F)F)c3)ncc2F)nc1C(=O)NC1CNCC(F)C1 (stereo not shown)", "target or system": "LIMK1", "assay": "KINOMEscan", "setting": "1 µM", "how to read": "baseline: DMSO control", "endpoint": "remaining binding", "result": "76%"}
{"SMILES": "C=C(NC(=O)c1csc(-c2nc3c(cc2O)-c2nc(cs2)C(=O)NC(C(C)O)C(=O)NC(=C(C)OC)c2nc(cs2)C(=O)NC2c4nc(cs4)C(=O)NC(COC(=O)c4c5c6c(cccc6n4O)COC(=O)C(OC4CC(C)(O)C(N(C)C)C(C)O4)C2OC5)c2nc-3cs2)n1)C(N)=O (stereo not shown)", "test system": "Sprague-Dawley rat, female, plasma", "setting": "intravenous infusion, 6 mg/kg, multiple doses, day 1", "endpoint": "Vz/F", "result": "17.5 L/kg"}
{"SMILES": "O=C(O)CCCOc1ccc([18F])cc1-c1cc(-c2ccccc2C(F)(F)F)n(-c2ccccc2)n1", "test system": "mouse, muscle", "setting": "intravenous, dose not given, 60 min", "endpoint": "tissue uptake", "result": "2.7 ± 0.43 %ID/g"}
{"SMILES": "COc1cccc(OC)c1-c1cc(C(=O)NC2(C(=O)O)C3CC4CC(C3)CC2C4)nn1-c1ccc(C(=O)N(C)CCOCCN(C)C(=O)[C@H](CCCCNC(=O)[C@H](CC(C)C)NC(=O)C2OC2C(=O)O)NC(=O)CN2CCN(CC(=O)[O-])CCN(CC(=O)[O-])CCN(CC(=O)[O-])CC2)cc1C(C)C.[177Lu+3] (mixture of isomers)", "test system": "mouse, HT-29 xenograft, lung", "setting": "72 h post injection", "endpoint": "tissue uptake", "result": "0.29 %ID/g"}
{"note": "For quick reference, copied from above:"}
{"SMILES": "COc1cccc(OC)c1-c1cc(C(=O)NC2(C(=O)O)C3CC4CC(C3)CC2C4)nn1-c1ccc(C(=O)N(C)CCOCCOCCN(C)C(=O)[C@H](CCCCNC(=O)[C@H](CC(C)C)NC(=O)C2OC2C(=O)O)NC(=O)CN2CCN(CC(=O)[O-])CCN(CC(=O)[O-])CCN(CC(=O)[O-])CC2)cc1C(C)C.[177Lu+3] (mixture of isomers)", "test system": "mouse, HT-29 xenograft, brain", "setting": "24 h post injection", "endpoint": "tissue uptake", "result": "0.03 %ID/g"}
